Measurements gathered from unrelated publications.
Protocols differ between the studies behind these lines. Numbers after ± are the reported error. Converted amounts (≈) assume the structure as drawn.

`C=CC(=O)Nc1cccc(Cn2ncc3cnc(Nc4cnn(CCOC)c4)nc32)c1`: “percent of control” 100% (EPHB3 human; binding, KINOMEscan; 100 nM; lower = stronger binding).
Under “log2 fold change”, `Cc1ncsc1-c1ccc(C(C)NC(=O)C2CC(O)CN2C(=O)C(NC(=O)CCCCCCCCCCN2CCCC(Nc3ncc(Cl)c(Nc4ccccc4S(=O)(=O)C(C)C)n3)C2)C(C)(C)C)cc1` (stereo not drawn) is recorded as -1.01 (22Rv1; RNA-seq, refers to: TNFRSF1A mRNA; concentration not given; reference: DMSO).
`C[n+]1cc(/C=N/NC(=O)c2cc(C(=O)N/N=C/c3cc4ccccc4[n+](C)c3)ncn2)cc2ccccc21` gave a ΔTm of 4.5 ± 1.7 °C (22CTA telomeric G4-DNA antiparallel; FRET melting; 1 µM, K10 buffer, DNA 0.2 µM, with: ds26 10 µM).
`C=C(NC(=O)c1csc(-c2nc3c(cc2O)-c2nc(cs2)C(=O)NC(C(C)O)C(=O)NC(=C(C)OC)c2nc(cs2)C(=O)NC2c4nc(cs4)C(=O)NC(COC(=O)c4c5c6c(cccc6n4O)COC(=O)C(OC4CC(C)(O)C(N(C)C)C(C)O4)C2OC5)c2nc-3cs2)n1)C(N)=O` (stereo not drawn) gave an MIC90 of 0.0312 µg/mL (≈ 0.0217 µM) (Staphylococcus epidermidis; microbial growth; clinical isolate).
`O=C(N/N=C/c1cc[n+](CC2CC2)c2ccccc12)N/N=C/c1cc[n+](CC2CC2)c2ccccc12` has a ΔTm of 11.3 ± 1 °C (22CTA telomeric G4-DNA antiparallel; FRET melting; 1 µM, K10 buffer, DNA 0.2 µM).
`CN1CCCNC(=O)c2cccc(c2)C(=O)NCCCN(C)CCCNc2cccc3c2C(=O)c2cccc(c2C3=O)NCCC1` — result for “log2 fold change”: 0.226 (SAS; RNA-Seq, refers to: GADD45B mRNA; 1 µM, 6 h; reference: untreated cells).
For `O=C(NCc1cccc(Cl)c1)c1ccc([C@H]2[C@@H](F)[C@@H](F)C[C@@H](F)[C@H]2F)cc1`, the hepatic clearance was 42 mL/min/kg (hepatocyte stability; cryopreserved rat hepatocytes; 1 µM).
The fold regulation of `CCN(CC)CC(=O)Nc1cccc(-n2cc(-c3ccc4ccc(-c5cn(-c6cccc(NC(=O)CN(CC)CC)c6)nn5)cc4c3)nn2)c1` is reported as -1.1 (RCC4; PCR angiogenesis array, refers to: ANGPT1; 5 x IC50, 2 h, normoxia; reference: untreated).
For `COC1OC(C)C(OS(=O)(=O)O)C(OC2OC(C)C(OS(=O)(=O)O)C(OC3OC(C)C(OS(=O)(=O)O)C(OS(=O)(=O)O)C3OS(=O)(=O)O)C2OS(=O)(=O)O)C1OS(=O)(=O)O` (stereo not drawn), “activated partial thromboplastin time” read 53.9 ± 1.7 s (human plasma; 128 µg/mL).
`O=C(N/N=C/c1cc[n+](CC2CC2)c2ccccc12)c1cncc(C(=O)N/N=C/c2cc[n+](CC3CC3)c3ccccc23)n1` gave a ΔTm of 16.4 ± 0.4 °C (22CTA telomeric G4-DNA antiparallel; FRET melting; 1 µM, K10 buffer, DNA 0.2 µM).
`COC1CN([C@H]2CC[C@H]([C@@]3(C)Oc4c(Cl)cc(C(=O)NCc5c(SC)cc(C)[nH]c5=O)c(C)c4O3)CC2)C1` — result for “log2 fold change”: 3.12 (RNA-seq, refers to: MECOM mouse homolog; mouse, HT-1376 xenograft, whole blood; dose not given; reference: vehicle).
The hepatic clearance of `CN(C)C(=O)CNC(=O)c1ccc([C@H]2[C@@H](F)[C@@H](F)C[C@@H](F)[C@H]2F)cc1` is reported as 4.9 mL/min/kg (liver microsome stability; cynomolgus liver microsomes; 1 µM).
For `c1ccc(-c2n[nH]cc2-c2ccnc3ccccc23)nc1`, “log2 fold change” read -0.2 (STE11 (Candida albicans); kinase binding, MIB/MS competition; Candida albicans lysate; 1 µM; reference: DMSO).
For `Nc1ncc(-c2cc(-c3cnn(CC(F)(F)F)c3)ncc2F)nc1C(=O)NC1CNCC(F)C1` (stereo not drawn), the remaining binding was 72% (TNK1; KINOMEscan; 1 µM; reference: DMSO control).
`C[n+]1ccc(/C=N/NC(=O)N/N=C/c2cc[n+](C)c3ccccc23)c2ccccc21` gave a ΔTm of 6 ± 0.9 °C (22CTA telomeric G4-DNA antiparallel; FRET melting; 1 µM, K10 buffer, DNA 0.2 µM).
`O=c1c(Oc2ccccc2)c(C(F)(F)F)oc2c(O)c(O)ccc12` has a di-ubiquitin formed of 62% (ROC1-CUL1 E3 subcomplex; di-ubiquitin synthesis; 1 µM; reference: input).
For `O=C(N/N=C/c1cc[n+](CC2CC2)c2ccccc12)C(=O)N/N=C/c1cc[n+](CC2CC2)c2ccccc12`, the ΔTm was 4.7 ± 1.2 °C (22CTA telomeric G4-DNA antiparallel; FRET melting; 1 µM, K10 buffer, DNA 0.2 µM, with: ds26 10 µM).
Under “log2 fold change”, `Cn1ncc2cc(-c3cncc(Cl)c3N3CCC4(CCNC4=O)CC3)ccc21` is recorded as 1.19 (LS174T; gene expression, microarray, refers to: HOXC4 mRNA; concentration not given, 4 h; reference: untreated cells).
With `C[n+]1ccc(/C=N/NC(=O)c2ccc3ccc4ccc(C(=O)N/N=C/c5cc[n+](C)cc5)nc4c3n2)cc1` the ΔTm was 17.7 ± 0.8 °C (22CTA telomeric G4-DNA antiparallel; FRET melting; 1 µM, K10 buffer, DNA 0.2 µM).
With `C=CC(=O)N1[C@@H](c2ccc3c(c2)OCO3)c2[nH]c3ccccc3c2C[C@H]1C(=O)N1CCN(C)CC1` the relative co-enrichment was 136% (human cyclin E1 N112C-3xFLAG:CDK2; co-IP with TMT proteomics, refers to: PRPF8; concentration not given, Q6P2Q9; reference: wild type DMSO).
`CNS(=O)(=O)Nc1nccc(Cc2c(C)c3ccc(Oc4ncccc4F)cc3oc2=O)c1F` gave an IC50 of greater than 1000 nM (YKG-1; cell viability; 7 days).
For `COC1OC(C)C(OS(=O)(=O)O)C(OC2OC(C)C(OS(=O)(=O)O)C(OC3OC(C)C(OS(=O)(=O)O)C(OC4OC(C)C(OS(=O)(=O)O)C(OC5OC(C)C(OS(=O)(=O)O)C(OC6OC(C)C(OS(=O)(=O)O)C(OC7OC(C)C(OS(=O)(=O)O)C(OC8OC(C)C(OS(=O)(=O)O)C(OC9OC(C)C(OS(=O)(=O)O)C(OC%10OC(C)C(OS(=O)(=O)O)C(OC%11OC(C)C(OS(=O)(=O)O)C(OS(=O)(=O)O)C%11O)C%10O)C9O)C8O)C7O)C6O)C5O)C4O)C3O)C2O)C1O` (stereo not drawn), “activated partial thromboplastin time” read 43.5 ± 0.3 s (human plasma; 128 µg/mL).
`O=C(N/N=C/c1ccc2c(ccc[n+]2Cc2ccccc2)c1)c1ccc2ccc3ccc(C(=O)N/N=C/c4ccc5c(ccc[n+]5Cc5ccccc5)c4)nc3c2n1` has a ΔTm of 22.7 ± 0.5 °C (22CTA telomeric G4-DNA antiparallel; FRET melting; 1 µM, K10 buffer, DNA 0.2 µM).
`COC1OC(C)C(OC2OC(C)C(O)C(OC3OC(C)C(OC4OC(C)C(O)C(OS(=O)(=O)O)C4OS(=O)(=O)O)C(OS(=O)(=O)O)C3OS(=O)(=O)O)C2OS(=O)(=O)O)C(OS(=O)(=O)O)C1OS(=O)(=O)O` (stereo not drawn): “activated partial thromboplastin time” 46.1 ± 1.3 s (human plasma; 128 µg/mL).
For `CO[C@@H]1[C@@H](OC(N)=O)[C@@H](O)[C@H](Oc2ccc3c(O)c(NC(=O)c4ccc(O)c(CC=C(C)C)c4)c(=O)oc3c2C)OC1(C)C`, the colony survival was 84.6% (HCT-116 BRCA2 wild-type; 100 µM, mean of replicates A, B; reference: untreated).
`C[n+]1cccc2cc(/C=N/NC(=O)C(=O)N/N=C/c3ccc4c(ccc[n+]4C)c3)ccc21` gave a ΔTm of 3 ± 1.6 °C (22CTA telomeric G4-DNA antiparallel; FRET melting; 1 µM, K10 buffer, DNA 0.2 µM).
Under “activated partial thromboplastin time”, `COC1OC(C)C(OS(=O)(=O)O)C(OC2OC(C)C(OS(=O)(=O)O)C(OC3OC(C)C(OS(=O)(=O)O)C(OC4OC(C)C(OS(=O)(=O)O)C(OS(=O)(=O)O)C4O)C3O)C2O)C1O` (stereo not drawn) is recorded as 34 ± 0.5 s (human plasma; 128 µg/mL).
